Measurements pooled from the literature.
Parts stem from different laboratories: compare values within a part only. Changes are numbered by the printed parent chain.

Block 1
Target: RNA binding protein fox-1 homolog 2, RRM domain, GST-SBP tag (RBFOX2, Homo sapiens, UniProt O43251-10, residues 100-194)
Technique: RNA Bind-n-Seq
Form: RNA
Sample: in vitro
Tested at: 365 nM
Notes: natural RNA segment, single round, ends assumed
Reference: no-protein control
Direction: higher = stronger binding
Construct (chain): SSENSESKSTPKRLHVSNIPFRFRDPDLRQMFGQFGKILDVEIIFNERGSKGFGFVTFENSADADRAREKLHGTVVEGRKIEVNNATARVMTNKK
Strand | RBNS enrichment (R)
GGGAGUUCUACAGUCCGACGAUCUCUUCGUGCCUGGCUCAUGGUAGAGCACAGUCAUGCACUGACCAAUGGAGGCAGCGUGUACACAUCGUCUUGAGUUUACGUUAUGACAUGGUUUAUUUUUAGUGCUAUUUUGGAAUUCUCGGGUGCCAA | 0.509
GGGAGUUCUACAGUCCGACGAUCUGAGUCCUUGUACAGAAAUGAUAGAGGCCUGAGGGGGUGUGCAGGUGAUAGACCCUGGUACUCCUAAGACCUGGGGUAUCAUAUCAGGGACCUGCUUGUGAACAUGUGUAUGGAAUUCUCGGGUGCCAA | 0.534
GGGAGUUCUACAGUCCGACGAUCACCACCUUGUCUUUAAAGAUCACUUUCCUGGGCUGCAAUGUUCCAACCCAGUUGUUCCAGCUGUUCACAACCAGUGUGUGAUUUUGCUUAGUUGGUGCCCAUUCUGCACCUGGAAUUCUCGGGUGCCAA | 0.632
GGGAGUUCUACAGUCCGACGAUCAGCAGGCCUGCGUUGCCAGGGAGUACCCCAGCCCCUUUCCCUUCUUGGGCUGCUACCGCCGCCACCACCGUCACCACCAUCUGUCCAGUGCUACUGUCUGUGCCCUCCUAUGGAAUUCUCGGGUGCCAA | 0.511
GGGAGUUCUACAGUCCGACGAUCGUUAGUGUUUUGCCUCACCUAAUAGGCUGGGAGACUGAAGACUCAGCCCGGGUGGGGCUGCAGAAAAAUGAUUGGCCCCAGUCCCCUUGUUUGUCCCUUCUACAGGCAUGUGGAAUUCUCGGGUGCCAA | 0.587
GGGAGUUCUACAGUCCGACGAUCGCUGCCCCACAGUGCUUGACCUCUGAGUCAUUGGUUAUACAGUGUAGUCCCAAGCACAUAAACUAGGAAGAGAAUGUAUUUGUAGGAGCGCUACCACCUGUUUUCAAGAGUGGAAUUCUCGGGUGCCAA | 0.52
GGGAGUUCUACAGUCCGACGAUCAAGAUUUUCUUUGUCUGUUGUUGGCAUAGAUUCUUUUGUACAUAUUUAUUUAUUUGUGUUUAUAUAUGUCAAUUGGUUUCCUUUCUUAGCUUGAUAUUGCCUAGCUUUGUUGGAAUUCUCGGGUGCCAA | 1.42
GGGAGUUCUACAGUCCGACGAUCUUCGGAUCCUGGAUCACUGAAAUAAGCACUUUCAGAUACACUUUCUACUAAUUAUGGGCUAAAGAGUUUCUUAUAAUAAAAUAUCCUCUAAGAUUAUAAAAUAAGCAGGUUGGAAUUCUCGGGUGCCAA | 0.574
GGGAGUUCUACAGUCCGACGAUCGAACUUGGCCCUCUCCUUUCUUCCUGUUAAGUCUGAGAGGGAAGAGCUAGGCUAUGAAGGGAAGAUGUGGCCGUACGUGGGAAUAACCAGUGUCCCACGCUCAUUUUCCCUGGAAUUCUCGGGUGCCAA | 1.14
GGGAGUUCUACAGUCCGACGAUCUAAGAAAAUAUAUUUUUGGUAUAACUUUUAUGAGAAAAAUAAAAUAUAUUCUGGUCCAAACUUCUAAUUUGUUGUGGCAAAAAUUACUGAACUUUACAAAAUAGUUUUGUUGGAAUUCUCGGGUGCCAA | 0.913
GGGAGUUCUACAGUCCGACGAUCAGCCUGGAGCCUGUGCCCAGGGCCGACAGGCGCGACACCCAGCAAGGCCACCUCUCCCCGGGCCCCCGCGCCUCUGCCGGACACGGACCGGCCCCUCAGCCCCCACCGAGUGGAAUUCUCGGGUGCCAA | 0.366
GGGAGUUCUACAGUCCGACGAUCCCUUUAAUCCCAGCACUCGGGAGGCAGAGGCAAGCGGAUUUCUGAGUUUGAGGCCAACCUGGUCUACAAAGUGAGUUCCAGGACAGCCAGGGCUACACAGAGAAACUUCGUGGAAUUCUCGGGUGCCAA | 0.318

Block 2
Target: Interferon regulatory factor 7, full length, phosphomimetic (IRF7, Homo sapiens, UniProt Q92985, residues 1-503, S471D/S472D/S475D/S476D/S477D/S483D/S484D/S487D)
Sequence of UniProt Q92985 (whole entry, unmodified, looked up): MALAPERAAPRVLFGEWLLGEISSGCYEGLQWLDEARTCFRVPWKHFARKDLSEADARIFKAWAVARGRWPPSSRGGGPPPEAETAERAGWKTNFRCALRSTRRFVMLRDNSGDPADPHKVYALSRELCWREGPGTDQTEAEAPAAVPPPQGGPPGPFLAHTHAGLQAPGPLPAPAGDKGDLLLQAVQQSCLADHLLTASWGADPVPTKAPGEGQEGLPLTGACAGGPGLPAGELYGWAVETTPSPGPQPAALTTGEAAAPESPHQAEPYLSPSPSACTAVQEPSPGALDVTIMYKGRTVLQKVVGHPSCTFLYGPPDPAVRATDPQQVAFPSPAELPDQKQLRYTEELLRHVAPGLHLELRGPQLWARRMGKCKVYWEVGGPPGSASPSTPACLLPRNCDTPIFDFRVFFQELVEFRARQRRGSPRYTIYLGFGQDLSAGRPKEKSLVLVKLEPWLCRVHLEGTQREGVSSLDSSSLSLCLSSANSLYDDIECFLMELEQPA
Technique: protein-binding microarray
Form: double-stranded DNA, one strand shown
Sample: in vitro
Tested at: 2200 nM top
Notes: 60-bp whole probe
Added: salmon DNA 0.4 mg/ml
Reference: random background probes
Direction: higher = stronger binding
Constant ends, left off below: GCCTAGCAC … GTCTTGATTCGCTTGACGCTGCTG
Strand | fitted relative affinity [z-score]
GACGGTATCGGGGTTCGGGACGTGCTA | -0.258
GCATCTCGGAGATCTCGAAGCGTGCTA | 0.568
TACGGTATCGGGACTGGGGACGTGCTA | -0.296
GACGGTCTCCTACGGCTGACGTGCTAG | -0.176
TTAGGTTTCGGTCTCGGATAGTGCTAG | 6.2
GAGGGTATCGGTTTCGGGACGTGCTAG | 3.68
TCAGCTTACAATATAAAACTGTGCTAG | 0.071
TCAGCTCTGTTGCCTGGTACTGTGCTA | 0.799
GAGGGACTGGGGTTTCGGGACGTGCTA | 0.498
GACGGTATCGGGTAGCGGGACGTGCTA | -0.408

Block 3
Target: Prothrombin, mature alpha-thrombin (F2, Homo sapiens, UniProt P00734)
Technique: aptamer microarray, sandwich
Form: DNA with 2'F-ANA
Sample: in vitro
Tested at: 200 nM
Notes: whole 15-mer aptamer, many near background
Added: Cy3 exosite-II aptamer, 400 nM
Direction: higher = stronger binding
Strand: GGTTGGTGTGGTTGG
Modification | mean fluorescence intensity [a.u.]
2'F-ANA at 1 2 4 5 6 9 10 | 51.9
2'F-ANA at 4 9 14 15 | 84.3
2'F-ANA at 7 8 12 13 | 897
2'F-ANA at 2 3 4 5 6 10 11 13 14 15 | 50.8
2'F-ANA at 1 5 6 8 13 | 52.9
2'F-ANA at 1 2 8 9 11 | 162
2'F-ANA at 9 10 12 | 225
2'F-ANA at 1 2 4 7 9 13 | 75.3
2'F-ANA at 3 7 8 9 11 14 | 662
2'F-ANA at 1 3 4 5 6 7 8 12 14 | 50.1
2'F-ANA at 2 3 4 5 6 14 | 54.1
2'F-ANA at 1 3 6 7 14 | 82.9
2'F-ANA at 1 2 4 5 8 9 11 | 55.7
2'F-ANA at 3 4 7 8 11 14 15 | 402
2'F-ANA at 3 5 6 8 11 12 13 15 | 158
2'F-ANA at 1 2 3 6 7 8 9 10 11 13 14 15 | 54.7
2'F-ANA at 5 7 8 10 11 12 13 14 | 45.9
2'F-ANA at 5 8 10 11 12 13 | 47.7
2'F-ANA at 1 3 4 5 6 8 9 11 12 14 15 | 48.7
2'F-ANA at 1 2 3 4 8 10 11 12 14 | 46.6
2'F-ANA at 1 2 4 5 6 8 10 12 13 | 224
2'F-ANA at 1 3 4 6 7 8 9 11 12 | 326
2'F-ANA at 1 7 8 10 12 13 14 | 49.3
2'F-ANA at 2 3 5 6 7 9 10 14 15 | 49.5
2'F-ANA at 1 3 4 8 9 13 14 15 | 61.1

Block 4
Target: Centromere-binding protein 1, full length, N-terminal tag (CBF1, Saccharomyces cerevisiae, UniProt P17106, residues 1-351)
Sequence of UniProt P17106 (whole entry, looked up): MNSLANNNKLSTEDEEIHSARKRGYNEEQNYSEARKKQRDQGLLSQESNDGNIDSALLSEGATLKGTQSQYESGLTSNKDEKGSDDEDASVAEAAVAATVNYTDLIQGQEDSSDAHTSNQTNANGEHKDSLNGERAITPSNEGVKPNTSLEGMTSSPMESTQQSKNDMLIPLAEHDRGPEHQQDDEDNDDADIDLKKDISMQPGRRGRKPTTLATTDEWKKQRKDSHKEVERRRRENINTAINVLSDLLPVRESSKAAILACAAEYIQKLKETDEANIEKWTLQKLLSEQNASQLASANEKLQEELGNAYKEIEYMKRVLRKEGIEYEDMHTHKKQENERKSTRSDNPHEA
Technique: protein-binding microarray
Form: double-stranded DNA, one strand shown
Sample: in vitro
Tested at: 0.8 µM
Notes: whole 60-bp probe, no competitor
Direction: higher = stronger binding
Strand | fluorescence intensity
CTACAAAGTGGCTGTGACATCTAGTATTGATAGTTCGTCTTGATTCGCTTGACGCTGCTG | 518 a.u.
CTAGAAATACAAGAACTGATGATGTAACAGAGTTTCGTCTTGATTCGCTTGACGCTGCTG | 519 a.u.
GAATTTTTATGTCCTCACGTTACACCGCATGTGTAGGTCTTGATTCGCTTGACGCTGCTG | 734 a.u.
TGTACGAAGCTATAGCACGTAACTATAGTAGTTAGGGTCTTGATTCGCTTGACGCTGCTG | 529 a.u.
GAAATCTTCCACGCTGATGTAAAGTGTAGTTCTTAGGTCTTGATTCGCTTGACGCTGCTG | 514 a.u.
GAAGATAAAACTCCGCACGTTGCTTGATTAATTTAGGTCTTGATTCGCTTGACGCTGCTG | 657 a.u.
GAACACTTTGGTTATGTCACCATGGTCAGATGATAGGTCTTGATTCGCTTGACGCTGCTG | 946 a.u.
TGTACGAAGCTATATCTCGTGAATATAGTAGTTAGGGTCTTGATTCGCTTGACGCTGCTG | 587 a.u.
GAAGAAATTGATAATCACGTGATCACGGCTTTCTAGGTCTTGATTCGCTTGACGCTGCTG | 48200 a.u.
CCTAACTACTATATACACACGTCATAGCTTCGTACAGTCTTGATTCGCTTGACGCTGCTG | 550 a.u.
TGTACGAAGCTATATCTGATGCTTATAGTAGTTAGGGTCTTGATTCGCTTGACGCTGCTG | 524 a.u.
CTAGTAACCTATGGTCACGGCCAGATTTTTTCCTTCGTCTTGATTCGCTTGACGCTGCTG | 656 a.u.
GAAGTTGCTAGGAACGTGATGATGGATTTCGTTTAGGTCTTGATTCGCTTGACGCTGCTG | 1120 a.u.
CTATTCCATATTCCGCACGTCACATTGCCAAATTTCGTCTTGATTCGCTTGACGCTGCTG | 887 a.u.
CTAGAGTTTCGAGAATTCGTGATTCAATGTTCATTCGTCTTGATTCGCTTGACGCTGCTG | 512 a.u.

Block 5
Target: CCNE1, cyclin fold, Cln2 fusion (human)
Technique: yeast growth competition, sequencing
Sample: yeast
Notes: weak parent motif
Reference: not given
Direction: higher = stronger binding
Parent: SAMHD1 docking peptide (human); ASKSRVQLFKDDP
Change | normalised enrichment score
V6Q | -0.59
D12S | 0.201
F9E | 0.0678
Q7V | 0.225
S2A | 0.38
D11F | 0.382
D11K | 0.675
Q7G | 0.0543
D12C | -0.245
L8W | 0.462
L8T | 0.219
S4I | 1.15
S4F | 0.649
L8I | -0.0701
K3N | -0.0988

Block 6
Target: Transcription factor SOX-2, HMG box (SOX2, Homo sapiens, UniProt P48431, residues 19-118)
Sequence of UniProt P48431 (19-118, looked up): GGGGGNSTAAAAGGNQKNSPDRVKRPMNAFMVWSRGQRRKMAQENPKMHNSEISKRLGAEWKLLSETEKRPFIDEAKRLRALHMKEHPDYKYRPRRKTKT
Technique: protein-binding microarray
Form: double-stranded DNA, one strand shown
Sample: in vitro
Tested at: not given
Notes: k-mer, scored over probes, only values ≥0.25
Direction: higher = stronger binding
Strand | E-score
CAATACC | 0.293
AAGAATA | 0.35
ATTCACA | 0.395
ATTCAGA | 0.333
GAATAGA | 0.327
CAATGGC | 0.341
CTTTTTA | 0.332
ACATTGA | 0.319
AAGGCCG | 0.315
AAAGAAT | 0.37
